Assay results pooled from the literature.
Parts stem from different laboratories: compare values within a part only. Changes are numbered by the printed parent chain.
UniProt Q9P0G3, sequence (whole entry, looked up): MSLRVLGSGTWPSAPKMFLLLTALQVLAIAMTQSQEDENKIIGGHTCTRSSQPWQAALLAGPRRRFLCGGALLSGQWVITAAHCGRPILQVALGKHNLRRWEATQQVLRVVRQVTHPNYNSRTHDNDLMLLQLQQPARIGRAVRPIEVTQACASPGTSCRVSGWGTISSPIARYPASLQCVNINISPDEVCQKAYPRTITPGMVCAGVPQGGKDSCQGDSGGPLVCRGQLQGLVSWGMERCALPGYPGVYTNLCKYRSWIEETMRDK

Study 1
Target: CCNB3, cyclin fold, Cln2 fusion (human)
Method: yeast growth competition, sequencing
Matrix: yeast
Notes: weak parent motif
Relative to: not given
Reading: higher = stronger binding
Starting sequence: viral docking peptide; PTARRRLLHDLDT; partner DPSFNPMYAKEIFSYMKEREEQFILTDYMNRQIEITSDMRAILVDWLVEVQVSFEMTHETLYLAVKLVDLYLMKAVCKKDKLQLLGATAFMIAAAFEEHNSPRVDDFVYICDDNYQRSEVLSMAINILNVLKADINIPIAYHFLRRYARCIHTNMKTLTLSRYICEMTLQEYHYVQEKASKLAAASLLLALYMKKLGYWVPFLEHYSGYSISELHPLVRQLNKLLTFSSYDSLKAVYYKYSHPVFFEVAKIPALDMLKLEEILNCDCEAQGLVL
Change | normalised enrichment score
L8A | -0.24
R6A | 0.383
H9A | 0.224
H9F | 2.31
L11A | 0.0374
R5A | 0.112
R5K | -0.191
L7A | -0.296

Study 2
Target: UBE2D4 UBC core domain (UniProt Q9Y2X8)
Method: yeast two-hybrid
Matrix: yeast
Notes: mostly zero background
Relative to: not given
Reading: higher = stronger interaction
B1: PEX2 RING domain (UniProt P28328); chain DNTLATSGKECALCGEWPTMPHTIGCEHIFCYFCAKSSFLFDVYFTCPKCGTEVHSLQPLK
B2: TRIM38 RING domain (UniProt O00635); chain STKKMMEEATCSICLSLMTNPVSINCGHSYCHLCITDFFKNPSQKQLRQETFCCPQCRAPFHMDSLRP
B3: RNF150 RING domain (UniProt Q9ULK6); chain DKETESDFDNCAVCIEGYKPNDVVRILPCRHLFHKSCVDPWLLDHRTCPMCKMNILKALGIP
B4: RNF175 RING domain (UniProt Q8N4F7); chain LPTRSLSDNICAVCGQKIIVELDEEGLIENTYQLSCNHVFHEFCIRGWCIVGKKQTCPYCKEKVDLKRMIS
B5: MSL2 RING domain (UniProt Q9HCI7); chain LLPYFRQSLSCCVCGHLLQDPIAPTNSTCQHYVCKTCKGKKMMMKPSCSWCKDYEQFEENKQ
Target sequence (chain): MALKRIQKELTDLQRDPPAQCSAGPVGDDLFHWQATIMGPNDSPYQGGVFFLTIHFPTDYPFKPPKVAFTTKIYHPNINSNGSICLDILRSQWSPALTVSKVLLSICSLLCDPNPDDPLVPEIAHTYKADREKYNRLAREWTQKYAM
Molecule | lacZ reporter activity
B1 (PEX2 RING domain) | 0
B2 (TRIM38 RING domain) | 0
FLKKLEQSFMCVCCQELVYQPVTTECFHNVCKDCLQRSFKAQVFSCPACRHDLGQNYIMI (UHRF2 RING domain (UniProt Q96PU4)) | 7410
KIKDLNEHIVCCLCAGYFVDATTITECLHTFCKSCIVKYLQTSKYCPMCNIKIHETQPLL (PCGF1 RING domain (UniProt Q9BSM1)) | 0
B3 (RNF150 RING domain) | 16100
B4 (RNF175 RING domain) | 0
ISNDSETLEECMVCSDMKRDTLFGPCGHIATCSLCSPRVKKCLICKEQVQSRTKIE (MIB1 RING domain (UniProt Q86YT6)) | 0
B5 (MSL2 RING domain) | 0

Study 3
Target: HLA class I histocompatibility antigen, A alpha chain, allele A*80:01 (Homo sapiens, UniProt P04439)
Read-out: peptide-MHC binding
Molecule type: peptide
Tested at: concentration not given
Molecule | binding
ELYENKPDV | inactive
ITLFPSYQL | inactive
KMKDPKMYH | inactive
ISDEFMWRY | inactive
RFRKKKKVY | inactive
PHDPDFLVL | inactive
SCRVKLSAL | inactive
TKDTNDNNL | inactive

Mixed results
Structure (SMILES) | target | measurement | result
CN(C)C(=O)COC(=O)Cc1ccc(OC(=O)c2ccc(NC(=N)N)cc2)cc1 | Kallikrein-14 (Homo sapiens, UniProt Q9P0G3) | IC50 | 999 nM
